Published values pooled from the literature.
Every numbered part comes from another study and shows a few of its results, in no order.

Sample 1 — technique: RNA Bind-n-Seq; form: RNA; sample: in vitro; tested at: 365 nM; baseline: no-protein control; reading: higher = stronger binding
Target: RNA binding protein fox-1 homolog 2, RRM domain, GST-SBP tag (RBFOX2, Homo sapiens, UniProt O43251-10, residues 100-194)
Notes: natural RNA segment, single round, ends assumed
All sequences stand within: GGGAGUUCUACAGUCCGACGAUC … UGGAAUUCUCGGGUGCCAA
Residues (chain): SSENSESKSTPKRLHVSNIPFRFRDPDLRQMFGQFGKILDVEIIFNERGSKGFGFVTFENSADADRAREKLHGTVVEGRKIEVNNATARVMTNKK
Sequence | RBNS enrichment (R)
UGAGCUAAAAUAUGCAAAAUCUGAACUAAAAUAUGCAAAAUCACUUUAAUAUAAUUUGACAUUUGAGGAGUACCAUUGCACUAACAGGAAAUCACUGCCGGAGACAGCCC | 0.514
GCUUCGUGAAUGUGUGUGGACUCUAGUUUCCGCAAAACAACGCAACACAAAACCAAGCAAGCAAAACACAAACACGAGUACAAACCUUGACCUGAUGAGGGACAGAGCUU | 1.43
CAGCCUGUCCUGGCUGCUCACCUCCCCGCAGGGCACCGGGCCUUUCCUGCCCUCUGUGGUCAUCUGCCACCUGCUGGAUCAAGUGCUUUCUCUUUUACACUCCCCUGUCC | 0.383
ACCCUGACUCUUAUUUGCUUGGGGGAAGGAGUGACUGGAGGAGGAACCUAGGAAGGGAACCAAGGAGGCUGGCCCUUGCUCCCUGACUCUUUCAGUGACCACCACCUCCC | 0.627
CAGUGACUUUUACACACUCUCACACACACACACACACACAAAAUCUGUUCACAGUUUCUGUGUCUUUGGGUUCCUCCUUUUUCCAAGAGAAAAGGAUGUGACUGCCCAUC | 0.453
UUCAAACUACCAUAAAGGGAUUUUAACUGUAUUUUUAUUCUUAGAAACAAUACACCUUUAAACAGAUGUCAAGACCAAAGAUGAUGUAUAAUAAACAGCCGGUGGUUAUG | 0.441
UCCUUAACUUCCUUCUGCCGACCUCCACCUCUGGUGGUUCCUGCCCUGCCUGGACACAGGGAGGCCCAGGGACUGACUCCUGGCCUGAGUGAUGCCCUCCUGGGCCCUUA | 0.392
AGCUGUGGUCUUAAAUACUAGACCAGGUUUAGUAGCUCUGUUUUGUCAGUUUUCUAUUUGCCCUCUUGAGUACAGGGAUGGAUGGAUGGCUGCUCAACACACUCCUCCCC | 0.349
UGCUGCUCUGGUCCUUGUGAUAAGCCUCUCUUCGGCAUCUGAGGAGCAGCUGCAGCAAAAUCUAGGGGUGUAAGUGUAUCAGGACUUAUGUGACUUAUAUUUUGGGGAGA | 0.785
GUUGGACCAAGGAGAAAGCCCUUUGGAGAAACUGGACCCUAGUUCAGUUUAGAUCUCAAAUAUAGGCUGAAAUCUCUUACCAAAGUGCGUUCCAGAUAAAAAUGAGACUU | 0.337
CCCCGUGGGGAAAUAAACUGACUUUGGACUGCUUCAGUUUCUGCCAUCUUCCAUGACUGCUUCUAUUCCUGCCUUCCAUGGCAGUGUCCACAGGAGAUAGGCAAGAAGAU | 0.318
CCAUUUGCUUUAUUUGUGCAAAUGCCAGGGUUGGUUUUUAUUUUUAUUUUUGCUAUUUACCUAAAAAGAAAAAGAGACAAUGCUUCAGUCAACUGCUUUUUUAUUUAAAA | 0.851

Sample 2 — technique: protein-binding microarray; form: double-stranded DNA, one strand shown; sample: in vitro; tested at: 250 nM; notes: 60-bp whole probe; together with: salmon DNA 0.4 mg/ml; baseline: random background probes; reading: higher = stronger binding; all sequences stand within: GCCTAGCAC … GTCTTGATTCGCTTGACGCTGCTG
Target: Interferon regulatory factor 5, full length, phosphomimetic (IRF5, Homo sapiens, UniProt Q13568-2, residues 1-514, K96S/S451D/S453D/S456D/S462D)
Sequence | log fluorescence
TCAGCATTTTTTTTATCACTGTGCTAG | 0.968 z-score
TCTAACTTCCCAATGGTCTTGTGCTAG | 0.146 z-score
GACGGTATCCTTTTCCTTACGTGCTAG | 0.596 z-score
TCCATTTTCTGAATGCCTTGGTGCTAG | 1.18 z-score
GACGGTATCGGTTTCAGGACGTGCTAG | 7.29 z-score
GACGGACTGGGGTTCCGGGACGTGCTA | -0.751 z-score
ACTCGTTTACATTTTCCAAAGTGCTAG | 0.736 z-score
TCAAATCTTTTTCCCTAACTGTGCTAG | 1.03 z-score
TTAGAACTCAGACTGGATTAGTGCTAG | 0.0479 z-score
GACGGTTTCCACACTGGGGACGTGCTA | 0.131 z-score
GACGATATCGGGTAGCGAGACGTGCTA | 2.06 z-score
GACGGACTGGGGTTTCGGGAAGTGCTA | 1.28 z-score
GACCGTTTCGACTTTCGGGACGTGCTA | 8.11 z-score
TTAGCACTGCTACTGCTTTAGTGCTAG | -0.169 z-score
TCATCTCGGAGATCTCGAACTGTGCTA | 0.206 z-score
TTATATATCGGGACTGGATTAGTGCTA | 1.47 z-score
GACGAACTGAGTTTCGAGAAGTGCTAG | 4.82 z-score
TTAGGTTTCGGGTGTCGGTTAGTGCTA | 8.28 z-score

Sample 3 — technique: protein binding microarray; form: double-stranded DNA, one strand shown; sample: in vitro; tested at: not given; baseline: not given; reading: higher = stronger binding
Target: Histone acetyltransferase KAT6A, winged helix 1, GST fusion (KAT6A, Homo sapiens, UniProt Q92794, residues 1-85)
Notes: 8-mer, flanks averaged, mean of 2 arrays, mostly near background
Construct (chain): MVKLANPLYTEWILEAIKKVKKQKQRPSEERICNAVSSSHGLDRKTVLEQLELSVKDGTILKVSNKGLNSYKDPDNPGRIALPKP
Sequence | E-score
CCCCTAAG | -0.212
ATTGAGGG | -0.0504
AGAGTACG | 0.0738
CTTTAGCC | -0.0559
AGTCATGA | -0.111
AGGTCGTA | -0.133
ACTCGATG | -0.168
ACCTCGAC | -0.155
CCTGTCTC | -0.185
CAGCATAA | -0.171
CGATGCTA | 0.0762
AACGCACG | 0.214
ACTGCACC | -0.0548
ATACAAGC | -0.0785
AACTTTGT | -0.0444
AAGGGCTG | -0.192
CCGCGCGA | 0.402
GAACGCGA | 0.0447

Sample 4 — technique: EMSA with sequencing; form: double-stranded DNA, one strand shown; sample: in vitro; tested at: 10 and 20 nM; baseline: negative control set to 0; reading: higher = stronger binding
Target: Hepatocyte nuclear factor 3-alpha (Foxa1, Mus musculus, UniProt P35582, residues 1-468, full length assumed)
Chain of UniProt P35582 (whole entry, looked up): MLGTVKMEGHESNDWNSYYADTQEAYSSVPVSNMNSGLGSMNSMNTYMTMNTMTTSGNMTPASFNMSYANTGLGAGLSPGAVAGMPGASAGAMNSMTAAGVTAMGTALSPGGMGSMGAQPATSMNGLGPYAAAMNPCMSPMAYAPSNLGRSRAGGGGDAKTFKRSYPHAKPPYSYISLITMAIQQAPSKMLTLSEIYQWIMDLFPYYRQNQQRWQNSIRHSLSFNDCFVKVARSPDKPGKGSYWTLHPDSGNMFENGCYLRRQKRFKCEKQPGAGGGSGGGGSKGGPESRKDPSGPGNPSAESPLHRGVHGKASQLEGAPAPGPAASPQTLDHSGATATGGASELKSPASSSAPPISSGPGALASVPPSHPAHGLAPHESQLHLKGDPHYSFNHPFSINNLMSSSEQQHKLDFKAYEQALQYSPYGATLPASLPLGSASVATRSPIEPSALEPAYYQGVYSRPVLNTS
Notes: whole designed probe, mean of two concentrations, ends assumed
All sequences stand within: GTGAGCGGTGCCCATTGATGGGGAAC … TTTCACTGGGATCGTGGGGAC
Sequence | normalised bound fraction [ratio]
TGGCAAAGTTTTTGCCAGAATTCAGAATTCAATGTAACATATGCTTTGCAGTTTTTCTGTTACGCTGTGATCAATGTATTTATGTGTATATGTGTAATCTCATGTAATGTGTGTGTGCGCATATGTGTTGGAGTAATAATATTGTGCCATTCCTGGTATATGGAAAATGGCCTCCAATTTCCCCCCAAATTCT | 0.000666
CCAAAGTAGGAAAAATATTAAAACAACATTTTTAGGAACTGATAAAATATCTGATTAATATTTATTGACAATATAAATTAAAAACTCTGTTATTTGTTTACATTGGTTTCTCTGTTTCAGACTCTGGTTAGTTCCTCGTGCATATGGCAGCCAGGCAAAAATTCCCAAACCATCATATTTATCATCTTCACTT | 0.48
ATCTTCCCCCTCTTCCTTGCCCCACCAGCTCACCTTCCCGGGTCAAAGTAAACAAGTGTTTACTTTGAAGCCGGCATTCGTTAACCCTCTTCACGCGCATACTGCACATTGGTCTGGATCTAACATGGTCCTTTGGCGACGCCAGGCTCCGGGAGAGCAAAGCACCGTGTCAGGGCCATGATCCGGGGTGGCC | 0.441
TTTTTTCTTTTAGTTTTCATTTTTTTTCTGAAAACAGAAACACACAGTAACATGTAATATAAAATTGCTTTTATTATAAATAACCCCTTACAATGTAATCTAATATATTGATATTATAAAACCACTGGTCCTCATTTGTTTTAATATGGCAAAATTAAATAACCTTTCACATTAAAAATATACTCTTTAGTTT | 0.314
ATCTTCCCCCTCTTCCTTGCCCCACCAGCTCACCTTCCCGGGTTATTTGCAGATAGGAAAATAAATAAAGCCGGCATTCGTTAACCCTCGATGAATCATGACTGCTGTTTGCTCTGGATCTAACATGGTCCTTTGGCGACGCCAGGCTCCGGGAGAGCAAAGCACCGTGTCAGGGCCATGATCCGGGGTGGCC | 0.362
AGAAGAATAACCAGTGGGGCCAGTCAGGGATGCTTCAGATGTCACAGCAGTACTATGGGCAGCAAGTCTCAATGCAAGGACACTGGTACAATGTAATCTAGCATATTCCATACCACTGTGTCATTTTATATCTGTTAAATGGCAAAAGGCCTGTAGTATCCCTAAAGGAAAGTAAAGCTTAAGGCCACTTTTC | -0.0684
TGTGTAAGATTAGCTATCTAAACATGAATAGCATTCTGAAGTGAAGGGAAAAAATTGACTTAAAATTTTAAAAGCATTAATATCATTTCAAAGTAATCTACAGGTCCTTTTAAAACGATTAGAGGATTATTTGTGCATTATTTTATGGGTCAAAATTTAAGCTTTTAAAAGAATAAAGTGATTTTTAAAAGAA | 0.0369
TCATTCGGTGAATATTGCTAATTACTAGAGCCTTCATGGGCAAAGGACAAGGTGGCTGGGCACTGGCCAACTGCCAGCTGTTTCTGGGCCAAAGCAAACAACTTGTGCCTTAGAATGCACTGGTATGGCTGGTGACAACCCCACCAATCCCTAGAGCTCCACTCCAGCCTCTCAATGGAAAACTTTTCTCCTG | 0.315

Some of these lines once more (sample 3):
Sequence | E-score
AAGGGCTG | -0.192
AGTCATGA | -0.111
AACTTTGT | -0.0444
AGGTCGTA | -0.133
